Assay results of several laboratories.
A part holds a random share of what one study measured.

Block 1 — technique: RNA Bind-n-Seq; form: RNA; sample: in vitro; tested at: 200 nM; notes: whole 134-nt RNA, ends assumed; together with: 150 mM KCl; baseline: input library; reading: higher = stronger binding
Target: Ras GTPase-activating protein-binding protein 1, full length (G3BP1, Homo sapiens, UniProt Q13283)
Chain of UniProt Q13283 (whole entry, looked up): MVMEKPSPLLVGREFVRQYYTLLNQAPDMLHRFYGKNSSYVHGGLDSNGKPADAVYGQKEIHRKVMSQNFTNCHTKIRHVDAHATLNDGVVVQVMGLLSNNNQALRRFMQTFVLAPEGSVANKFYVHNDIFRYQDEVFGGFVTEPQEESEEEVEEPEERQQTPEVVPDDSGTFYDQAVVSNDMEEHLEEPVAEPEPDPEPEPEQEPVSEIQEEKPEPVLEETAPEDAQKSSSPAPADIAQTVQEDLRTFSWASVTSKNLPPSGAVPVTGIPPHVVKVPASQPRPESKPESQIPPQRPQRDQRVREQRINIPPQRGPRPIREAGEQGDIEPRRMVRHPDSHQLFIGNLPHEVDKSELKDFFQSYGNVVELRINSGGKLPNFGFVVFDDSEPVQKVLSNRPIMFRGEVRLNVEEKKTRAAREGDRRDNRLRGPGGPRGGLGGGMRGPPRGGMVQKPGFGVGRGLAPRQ
Oligonucleotide | log2 enrichment
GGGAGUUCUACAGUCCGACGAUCUCCUCAAGUCCUGUGCUACACAUCGUAUGUACCGAAUCGGCGGCGGGCGGGAAAGUAUUAUGUUACGCCGUUCGGAUCUGCACUUCCAGCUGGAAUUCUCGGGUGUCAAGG | -0.203
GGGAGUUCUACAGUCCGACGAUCUUUGGAGAAGGAACCCCACUCUCCAGCUGACCAGCCUGAACAACAGGCAGAAUCCACUUUGACAUCAGCUGAGACUAGGGGAAGCAAGAAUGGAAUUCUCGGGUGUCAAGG | -0.663
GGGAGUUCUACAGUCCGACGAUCAAGUCCUGUGCUACACAUCGUAUGUACCGAAUCGGGGAAAGGAAAGGGGAAAGGGGAAAGUAUUAUGUUACGCCGUUCGGAUCUGCACUUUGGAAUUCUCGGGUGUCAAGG | 0.225
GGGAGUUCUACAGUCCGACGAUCCCUGUGCUACACAUCGUAUGUACCGAAUCGGGUUUUUUGGGUUUUUUGGGGUUUUUUGGGAAAGUAUUAUGUUACGCCGUUCGGAUCUGCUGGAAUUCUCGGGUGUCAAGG | -0.607
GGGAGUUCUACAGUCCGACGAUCCAAGUCCUGUGCUACACAUCGUAUGUACCGAAUCGGGUGGGUUUGGGUUUUUGGGAAAGUAUUAUGUUACGCCGUUCGGAUCUGCACUUCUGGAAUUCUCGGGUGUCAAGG | 0.338
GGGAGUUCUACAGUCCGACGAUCUAGGUAAGAAAGUACUCAUUGUCUAUGCACACCAGGAACCCAAGUCUUUCAACGGAUCCUUGAAGAAUGUGGCUGUAGAUGAACUGAGCAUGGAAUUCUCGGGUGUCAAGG | 1.23e-05
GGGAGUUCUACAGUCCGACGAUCUGGCCCUGGUGGCAUGCGGGGAGGAAGAGGUGGCCUCAUGGAUCGUGGUGGUCCCGGUGGAAUGUUCAGAGGUGGCAGUGGUGGAGACAGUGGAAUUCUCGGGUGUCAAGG | 0.246
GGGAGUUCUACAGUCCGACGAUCAAGUCCUGUGCUACACAUCGUAUGUACCGAAUCGGAGGAAAAAAAGGAAAAAAAGGAAAGUAUUAUGUUACGCCGUUCGGAUCUGCACUUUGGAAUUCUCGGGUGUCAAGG | -1.12
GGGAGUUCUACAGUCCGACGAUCAGUCCUGUGCUACACAUCGUAUGUACCGAAUCGGGUUUUUGGGUUUUUGGGUUUGGGAAAGUAUUAUGUUACGCCGUUCGGAUCUGCACUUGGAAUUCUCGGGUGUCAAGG | -0.341
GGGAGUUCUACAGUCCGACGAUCUGUCAGUAUCAUACAUAACAGAGGAAUGCCUGAAGAAGCUGGACACAAAGCAGCAGACCAACACCCUGCUCAACCUGGUGUGGAGGGACUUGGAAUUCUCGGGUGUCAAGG | -0.499
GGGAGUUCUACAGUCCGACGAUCUAACUUUAGAGGAGGAUCUGAUGGAUAUGGCAGUGGACGUGGAUUUGGGGAAGGCUAUAAUGGGUAUGGAGGAGGACCUGGAGGUGGCAAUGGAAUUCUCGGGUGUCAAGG | 0.231
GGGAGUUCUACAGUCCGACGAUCUCCUGUGCUACACAUCGUAUGUACCGAAUCGGGGUGGGGAAAAAGGGGUUUUUUUGGGGAAAGUAUUAUGUUACGCCGUUCGGAUCUGCAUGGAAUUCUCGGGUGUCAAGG | 0.679
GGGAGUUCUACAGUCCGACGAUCCUCAAGUCCUGUGCUACACAUCGUAUGUACCGAAUCGGAAAAAGGAAAGGAGGAAAGUAUUAUGUUACGCCGUUCGGAUCUGCACUUCCAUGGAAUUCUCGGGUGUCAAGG | -0.6
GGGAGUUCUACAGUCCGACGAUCCUGUGCUACACAUCGUAUGUACCGAAUCGGGAAAAAAAGGGAAAAAAAGGAAAAAAAGGGGAAAGUAUUAUGUUACGCCGUUCGGAUCUGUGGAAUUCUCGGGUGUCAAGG | -0.866

Block 2 — technique: universal PBM; form: double-stranded DNA, one strand shown; sample: in vitro; tested at: 600 nM; reading: higher = stronger binding
Target: Sal-like protein 4, full length isoform A (SALL4, Homo sapiens, UniProt Q9UJQ4, residues 1-1053)
Chain of UniProt Q9UJQ4 (whole entry, looked up): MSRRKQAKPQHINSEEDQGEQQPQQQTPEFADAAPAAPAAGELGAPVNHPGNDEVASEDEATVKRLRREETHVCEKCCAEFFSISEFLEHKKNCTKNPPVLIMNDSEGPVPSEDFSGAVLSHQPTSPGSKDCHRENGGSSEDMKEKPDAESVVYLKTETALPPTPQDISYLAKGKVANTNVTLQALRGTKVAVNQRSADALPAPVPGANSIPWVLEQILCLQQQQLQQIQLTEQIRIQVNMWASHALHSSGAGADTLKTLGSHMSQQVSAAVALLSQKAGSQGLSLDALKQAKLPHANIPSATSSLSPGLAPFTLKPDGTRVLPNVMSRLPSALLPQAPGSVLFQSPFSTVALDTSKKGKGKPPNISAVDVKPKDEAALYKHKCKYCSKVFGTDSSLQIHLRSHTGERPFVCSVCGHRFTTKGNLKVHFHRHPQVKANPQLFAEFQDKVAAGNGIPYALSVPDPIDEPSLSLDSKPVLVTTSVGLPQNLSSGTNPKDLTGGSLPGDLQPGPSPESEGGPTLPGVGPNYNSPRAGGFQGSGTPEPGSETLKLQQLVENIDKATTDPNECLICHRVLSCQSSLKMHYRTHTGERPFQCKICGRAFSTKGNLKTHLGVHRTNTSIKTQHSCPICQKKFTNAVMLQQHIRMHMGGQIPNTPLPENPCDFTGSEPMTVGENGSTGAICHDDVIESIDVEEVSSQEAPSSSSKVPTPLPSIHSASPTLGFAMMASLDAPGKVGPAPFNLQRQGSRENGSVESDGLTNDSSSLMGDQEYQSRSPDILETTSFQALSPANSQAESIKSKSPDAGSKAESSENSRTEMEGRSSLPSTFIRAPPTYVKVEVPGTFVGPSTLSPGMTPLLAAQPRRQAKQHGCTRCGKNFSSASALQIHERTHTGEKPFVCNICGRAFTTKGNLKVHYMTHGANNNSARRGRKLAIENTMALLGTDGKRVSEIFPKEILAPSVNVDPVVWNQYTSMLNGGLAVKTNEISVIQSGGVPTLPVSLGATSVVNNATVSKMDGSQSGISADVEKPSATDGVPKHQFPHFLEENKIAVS
Notes: 8-mer, flanks averaged, mean of replicates
Oligonucleotide | E-score
CACGCTAC | -0.0832
GCAGTGTA | 0.0123
AAGACTCC | -0.158
AGCCACAT | 0.0885
GCTTCACC | -0.164
CCGTTCAA | -0.03
AGAAAGTC | 0.0346
GTAACAAA | 0.228
ACCAGATC | -0.251
AAGAATCA | 0.229
AACACGCG | -0.129
CCAGGAGC | -0.361
GGCGTTAC | -0.204
GAACGGAA | -0.151
ATTCGGGA | -0.0416
CCGACCTC | -0.235
AGCAGGCT | -0.165

Block 3 — technique: aptamer microarray, sandwich; form: DNA with 2'F-ANA; sample: in vitro; tested at: 200 nM; together with: Cy3 exosite-II aptamer, 400 nM; reading: higher = stronger binding; oligonucleotide: GGTTGGTGTGGTTGG
Target: Prothrombin, mature alpha-thrombin (F2, Homo sapiens, UniProt P00734)
Notes: whole 15-mer aptamer, many near background
Modification | mean fluorescence intensity
2'F-ANA at 1 2 3 4 6 9 14 15 | 55.5 a.u.
2'F-ANA at 1 2 3 4 5 6 8 9 10 12 13 | 140 a.u.
2'F-ANA at 1 2 4 5 13 15 | 51.8 a.u.
2'F-ANA at 3 5 6 8 11 14 | 55.5 a.u.
2'F-ANA at 1 3 9 12 13 15 | 432 a.u.
2'F-ANA at 4 5 8 9 10 12 13 14 | 45.6 a.u.
2'F-ANA at 6 9 12 14 15 | 182 a.u.
2'F-ANA at 2 3 4 6 7 9 11 15 | 350 a.u.
2'F-ANA at 1 3 7 9 10 13 14 | 123 a.u.
2'F-ANA at 1 3 6 7 9 10 11 13 14 | 55.7 a.u.
2'F-ANA at 1 3 5 8 9 10 11 12 13 15 | 110 a.u.
2'F-ANA at 1 3 4 7 10 12 13 14 | 52.7 a.u.
2'F-ANA at 2 3 11 12 14 | 515 a.u.
2'F-ANA at 2 3 6 7 12 14 | 382 a.u.
2'F-ANA at 1 2 4 5 7 13 15 | 77 a.u.
2'F-ANA at 2 3 4 6 8 10 13 | 193 a.u.
2'F-ANA at 1 2 3 4 6 7 9 10 12 13 14 15 | 61.7 a.u.
2'F-ANA at 1 2 6 7 8 11 12 14 | 80.3 a.u.
2'F-ANA at 1 2 6 8 9 10 12 13 15 | 65.4 a.u.
2'F-ANA at 2 6 7 10 13 14 | 85 a.u.
2'F-ANA at 6 9 11 13 14 | 142 a.u.
2'F-ANA at 1 2 4 5 6 9 12 14 15 | 45.1 a.u.
2'F-ANA at 1 3 4 5 6 8 9 11 13 | 100 a.u.
2'F-ANA at 1 2 3 4 6 8 9 10 13 14 15 | 52.4 a.u.
2'F-ANA at 2 3 4 7 9 10 | 325 a.u.

Block 4 — technique: protein-binding microarray; form: double-stranded DNA, one strand shown; sample: in vitro; tested at: 940 nM top; notes: 60-bp whole probe; together with: salmon DNA 0.4 mg/ml; baseline: random background probes; reading: higher = stronger binding; all sequences stand within: GCCTAGCAC … GTCTTGATTCGCTTGACGCTGCTG
Target: Interferon regulatory factor 5, full length, phosphomimetic (IRF5, Homo sapiens, UniProt Q13568-2, residues 1-514, S451D/S453D/S456D/S462D)
Oligonucleotide | fitted relative affinity
TTAGATATCAGTGTCGATTAGTGCTAG | 0.256 z-score
GACTATCTCAGACTGGAGACGTGCTAG | -0.262 z-score
TTAGACCTCAGTCTCGATTAGTGCTAG | 2.45 z-score
GATGAACTGGGGTATCGAGACGTGCTA | 1.16 z-score
TTACAGCTATTTTTAGGATGGTGCTAG | -0.243 z-score
GTCGGTCTCCTTATCCTGACGTGCTAG | 1.38 z-score
TTAGGTATTCTTTTCCTTTAGTGCTAG | 0.465 z-score
TTAGATTACAGTTTCGATTAGTGCTAG | 7.23 z-score
GAAGGTTTCCTTTTCCTGACGTGCTAG | 1.6 z-score
GACGGTTCCAGTTTCGGGACGTGCTAG | 4.74 z-score
CTTCTTTTTTTTCTTTAAAAGTGCTAG | 1.61 z-score
TTAGGTCTCCTTATACTTTAGTGCTAG | 0.444 z-score
TTAGATTTCGAGTATCGATTAGTGCTA | 4.26 z-score
TTCTATGACTACATTGCAGCGTGCTAG | -0.0826 z-score
GACGATTCCAGTTTCGAGCCGTGCTAG | 3.42 z-score
GACGGACCGCTTCTCCTGACGTGCTAG | -0.521 z-score
GACGGTATCGGGTTTCGAGACGTGCTA | 5.37 z-score
TTAGGTTTCGGTTCGGGTTAGTGCTAG | 14.9 z-score
TCACCTTTGCCTCTGAGACTGTGCTAG | 0.221 z-score
GACGGACTGGGTTTCGTGACGTGCTAG | 0.695 z-score

Block 5 — technique: protein binding microarray; form: double-stranded DNA, one strand shown; sample: in vitro; tested at: not given; baseline: not given; reading: higher = stronger binding
Target: Histone acetyltransferase KAT6A, winged helix 1, GST fusion (KAT6A, Homo sapiens, UniProt Q92794, residues 1-85)
Notes: 8-mer, flanks averaged, mean of 2 arrays, mostly near background
Residues (chain): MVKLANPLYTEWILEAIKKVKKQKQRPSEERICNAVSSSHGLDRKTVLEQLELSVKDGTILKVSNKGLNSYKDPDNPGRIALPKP
Oligonucleotide | E-score
CAAACGTG | -0.134
CGGGGCGC | 0.405
ACTGGTAA | -0.0848
GACCTGTA | -0.00799
CAGTTACC | -0.103
CGCTGGTA | 0.0534
ATCCAGAA | -0.216
CCTAGAGC | 0.194
CACTGAGG | -0.0584
ATTTGCAC | -0.351
AGAATACA | -0.072
CCACCTAC | -0.079
CTCATGCA | -0.274
ATGACTGC | -0.11
CCTGACTA | -0.119
CTTAAAAC | -0.146
AATGATAC | -0.189
CCTCCCAC | -0.0815
ACACTAGT | -0.0141
CTGTGGTA | -0.169
CCTTTTAA | -0.0367
ATAAGTCG | -0.0322
AGTGGAGC | -0.117
CTACTTAC | -0.0588
TATTGGAA | -0.166

For quick reference, copied from above (block 3):
Modification | mean fluorescence intensity
2'F-ANA at 1 3 4 5 6 8 9 11 13 | 100 a.u.
2'F-ANA at 2 3 4 6 7 9 11 15 | 350 a.u.
2'F-ANA at 1 2 4 5 6 9 12 14 15 | 45.1 a.u.
2'F-ANA at 2 6 7 10 13 14 | 85 a.u.
2'F-ANA at 1 2 3 4 6 7 9 10 12 13 14 15 | 61.7 a.u.
2'F-ANA at 6 9 12 14 15 | 182 a.u.
2'F-ANA at 1 2 6 8 9 10 12 13 15 | 65.4 a.u.
2'F-ANA at 1 3 6 7 9 10 11 13 14 | 55.7 a.u.
2'F-ANA at 1 2 3 4 6 9 14 15 | 55.5 a.u.
2'F-ANA at 6 9 11 13 14 | 142 a.u.
2'F-ANA at 1 2 3 4 5 6 8 9 10 12 13 | 140 a.u.
